Results collected from several papers.
Parts stem from different laboratories: compare values within a part only. Changes are numbered by the printed parent chain.

Study 1
Target: RNA binding protein fox-1 homolog 2, RRM domain, GST-SBP tag (RBFOX2, Homo sapiens, UniProt O43251-10, residues 100-194)
Technique: RNA Bind-n-Seq
Form: RNA
Sample: in vitro
Tested at: 365 nM
Setting: natural RNA segment, single round, ends assumed
Relative to: no-protein control
Direction: higher = stronger binding
Endpoint: RBNS enrichment (R)
Target sequence (chain): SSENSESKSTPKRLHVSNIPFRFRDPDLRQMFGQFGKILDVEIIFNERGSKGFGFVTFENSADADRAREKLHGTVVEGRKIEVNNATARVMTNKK
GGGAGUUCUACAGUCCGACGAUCAAUAAUACCUUAAUCCAGGGUAGGGAGACGUUGCACAAUGCAUUGCAUUAUAUAUACCUAUCACUGAUUUAAUGUUCCAAUGUAGAUAGACACUAUUAAAUAAGCAGUAAUGGAAUUCUCGGGUGCCAA: 0.533
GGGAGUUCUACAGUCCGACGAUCCACUAACAUCCUCCUACACCGGUCCAUCGUGUUCGGCUCUGAUCAGGAAUAGACAAGGCUUCUUUGACUGUCAAGUGAUUAACAUAUGGUACCCGGUGUCAGAACAUUUAUGGAAUUCUCGGGUGCCAA: 0.272
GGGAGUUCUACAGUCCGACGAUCCCUAAGGUAACAUAUGUCUCACAUGUAUUCAGACAUACAGGAUGCUAAUCCACCUUGCAUCCUGCUGUCCAGGUGGACUUCUGUUAGGGACCCAAGGGCCCUUUGGUGUGUGGAAUUCUCGGGUGCCAA: 0.357
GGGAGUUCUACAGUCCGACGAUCUUAUAGGGAAACAAGUGGAGCAGGGACGUGGCUUUAAUUGGAGCACUCGGCUGGGCUGCUUGGGGAGACUCUUCCGUGCGUUCUUCCUCUGGAUAGAACCACCACCUCCUUGGAAUUCUCGGGUGCCAA: 0.383
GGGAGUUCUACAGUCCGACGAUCAGAUCUAUCCGAGUGCUUCCUUCAACUGACCAUAUGCUUCUUCCUCGUGUCUGCCUGCGGGCUCCUGAGGGUCCACAGCUGAGCUGAUCCAUCUUUCCCUCAAGUGACCGUGGAAUUCUCGGGUGCCAA: 1.35
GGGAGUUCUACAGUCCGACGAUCUGCGCUCUGUGGAUGCCAGGGCCGACCAGAGGAGCCUUUUUAAAACACAUGUUUUUAUACAAAAUAAGAACGAGGAUUUUAAUUUUUUUUAGUAUUUAUUUAUGUACUUUUGGAAUUCUCGGGUGCCAA: 0.532
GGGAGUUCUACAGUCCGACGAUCUACUAGCUCAGUGCUCAAUCUCCAGGUACUAUAUAUACAUUUGCCCGUUUUAUCUCUAAUGUGAAAUAAAUCCCCAAACACUUGUUUAUCGUGUAGCGUACCUAAAAGACUGGAAUUCUCGGGUGCCAA: 0.308
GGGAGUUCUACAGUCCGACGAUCGCUGGGGUUUCUAGUAAAGUCUGUGAGCCUCUCCACCAGUCCCUGUAAAUGCUAAUGCAGCCCAGCCCUGCCUGUUGUUUUGGAUCCUUGGUGUCUCAUGUGUACUUCCUUGGAAUUCUCGGGUGCCAA: 0.724
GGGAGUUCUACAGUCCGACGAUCCAUAGGCAUUUUAAGAGAACAGAAUGGUAGCAUAAUUUAACCCUGCACUGAGCAGGAACAUUGAAGAGUUGGGUGGUCGCACUGGUGUUAGCUGAAGAUGGGAAAGACUCUGGAAUUCUCGGGUGCCAA: 2.2
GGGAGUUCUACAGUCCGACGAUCCUCCAGCCUGGGCAACAGAGUGAGGCCCUGUCUCAAACACAUAAAAGGCAGUGGCCCACGCCUGUAAUCCCAGCACUUUGGGAGGCCAAGGCGGGCAGAUCACGAGGUCAUGGAAUUCUCGGGUGCCAA: 0.381
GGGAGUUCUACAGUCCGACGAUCUAAAGAUCACCCGUUGUAUUCACCCCACACCCAGGGCUAGUAUAAACAUGACCCUGGGCUUCUGUACCACACUAGAAUUCAUGUGAGAAAGCUAAAAUGGUGGUCUUCUCUGGAAUUCUCGGGUGCCAA: 0.205
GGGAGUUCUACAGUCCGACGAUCUUUCUUUCAGCUGUUUGUUAGUUUUUGCUUUAUUUAAAGCAUAUUUAAGUUAUUUUAAUGUGGUUUAGGGGCAAAAUGUGCAGAUACUUCAUUUUUGUAAGAUAGAUUGUUGGAAUUCUCGGGUGCCAA: 0.494

Study 2
Target: ABI1, truncated, D143A, DHFR fusion (Arabidopsis thaliana)
Technique: DHFR PCA, deep sequencing
Sample: yeast
Setting: methotrexate growth selection, single substitutions
With: (+)-ABA 58 µM
Relative to: wild-type fitted maximum
Direction: higher = stronger binding
Endpoint: relative binding score
Starting sequence: PYL1, truncated, DHFR fusion (Arabidopsis thaliana); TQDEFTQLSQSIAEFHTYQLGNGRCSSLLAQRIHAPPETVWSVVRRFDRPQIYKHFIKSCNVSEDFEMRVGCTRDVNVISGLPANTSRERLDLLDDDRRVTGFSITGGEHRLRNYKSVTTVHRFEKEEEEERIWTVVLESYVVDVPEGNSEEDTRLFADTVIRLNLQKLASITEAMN
R74W: 0.671%
R132C: 97.9%
H34R: 77.3%
E89M: -2.15%
L112T: 1.97%
E14L: 66.5%
R45E: -5.98%
S42M: 84.2%
C72Q: 79.9%
L82P: 53.2%
N114M: 17.2%
I57N: -3.31%
E14I: 65%
P36G: 66.8%
T154K: 16.2%

Study 3
Target: CCNB3, cyclin fold, Cln2 fusion (human)
Technique: yeast growth competition, sequencing
Sample: yeast
Setting: weak parent motif
Relative to: not given
Direction: higher = stronger binding
Endpoint: normalised enrichment score
Starting sequence: ORC1 docking peptide (human); PRARKRLELGNLG
PRARVRLELGNLG [K5V]: 0.00166
PRWRKRLELGNLG [A3W]: 0.142
PRARKRLELGNLF [G13F]: -0.104
PRAEKRLELGNLG [R4E]: 0.394
PRARKRLNLGNLG [E8N]: 0.137
PRARKRLEIGNLG [L9I]: 0.253
PRARKRLELGNSG [L12S]: 0.171
PRARKRLEAGNLG [L9A]: 0.338
PRARKRLELCNLG [G10C]: 0.118
PRARTRLELGNLG [K5T]: -0.0214
PCARKRLELGNLG [R2C]: -0.00855
PRARKRLERGNLG [L9R]: 0.35
PRARKRLCLGNLG [E8C]: -0.0778
PRARGRLELGNLG [K5G]: 0.241
PRARKRLELGNLD [G13D]: 0.239
PRARKRLELTNLG [G10T]: -0.118
PRARKWLELGNLG [R6W]: 0.191
PRARKILELGNLG [R6I]: 0.559
PRARKRLELINLG [G10I]: 0.225
PRARKRLELGNRG [L12R]: -0.355
ARARKRLELGNLG [P1A]: 0.622
PRARKRLEWGNLG [L9W]: 0.0595
PRARMRLELGNLG [K5M]: -0.0146
PYARKRLELGNLG [R2Y]: -0.236
PRARKRLELGELG [N11E]: -0.182

Study 4
Target: Interferon regulatory factor 7, full length, phosphomimetic (IRF7, Homo sapiens, UniProt Q92985, residues 1-503, S471D/S472D/S475D/S476D/S477D/S483D/S484D/S487D)
UniProt Q92985, sequence (whole entry, unmodified, looked up): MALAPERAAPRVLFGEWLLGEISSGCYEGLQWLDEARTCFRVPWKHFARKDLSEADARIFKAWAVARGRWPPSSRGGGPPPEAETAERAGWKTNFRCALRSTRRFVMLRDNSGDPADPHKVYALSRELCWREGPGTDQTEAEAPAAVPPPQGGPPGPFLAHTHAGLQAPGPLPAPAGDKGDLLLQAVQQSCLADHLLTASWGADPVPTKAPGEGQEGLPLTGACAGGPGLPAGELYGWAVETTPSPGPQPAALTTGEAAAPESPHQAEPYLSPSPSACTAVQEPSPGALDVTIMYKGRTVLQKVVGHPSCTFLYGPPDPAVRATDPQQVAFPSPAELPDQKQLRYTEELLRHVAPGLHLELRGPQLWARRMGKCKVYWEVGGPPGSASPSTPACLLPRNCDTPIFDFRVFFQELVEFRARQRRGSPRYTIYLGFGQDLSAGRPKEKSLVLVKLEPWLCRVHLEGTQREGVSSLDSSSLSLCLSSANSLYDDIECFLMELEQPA
Technique: protein-binding microarray
Form: double-stranded DNA, one strand shown
Sample: in vitro
Tested at: 2200 nM top
Setting: 60-bp whole probe
With: salmon DNA 0.4 mg/ml
Relative to: random background probes
Direction: higher = stronger binding
Endpoint: fitted relative affinity
Constant ends, left off below: GCCTAGCAC … GTCTTGATTCGCTTGACGCTGCTG
TTAGGTCTCCTACTGCTTTGGTGCTAG: 0.616 z-score
GACGATTCGAGTTTCGAGACGTGCTAG: 2.84 z-score
TTAGGTATCGGTATCGGTAAGTGCTAG: 0.785 z-score
TTAGATATGAGTTTCGATTAGTGCTAG: 3.73 z-score
TTAGAACTGAGACTGAATTAGTGCTAG: -0.93 z-score
GGACTCACCTAGTTTCATTCCGTGCTA: 3.32 z-score
TTAGGACTGGGTTTCGGTTGGTGCTAG: 5.49 z-score
GGCGGACTGGGACTGGGGACGTGCTAG: -1.42 z-score
TCACTTTTCTGTTGTCTGACTGTGCTA: 5.02 z-score
TGCCCCCACACTCCTAGCACGTGCTAG: 0.415 z-score
TTAGAACAGAGTATCGATTAGTGCTAG: -0.586 z-score
TTAGGACAGGGGTATCGGTTAGTGCTA: -0.513 z-score
GTGAGTCCCGAGAATGGTGTGGTGCTA: -0.218 z-score
GACGATATCGGGCATCGAGACGTGCTA: -0.44 z-score
TTCAATTTTTGCATCGTAAGGTGCTAG: 1.37 z-score

Study 5
Target: JUN, bZIP domain (human)
Technique: DHFR protein complementation
Sample: yeast
Setting: single substitutions, most at no-binding floor
Relative to: wild-type JUN-FOS pair
Direction: higher = stronger binding
Endpoint: binding fitness
Starting sequence: JUN, bZIP domain (human); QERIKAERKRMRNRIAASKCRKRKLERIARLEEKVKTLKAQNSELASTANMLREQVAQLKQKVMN; partner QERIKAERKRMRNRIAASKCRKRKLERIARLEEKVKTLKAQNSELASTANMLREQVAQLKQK
Q58V: -0.38 natural log
L31Y: -1.19 natural log
T37V: -0.177 natural log
N42W: -1.1 natural log
M51A: -0.063 natural log
K36C: -0.418 natural log
V56M: -0.459 natural log
A40L: -0.361 natural log
Q55T: -0.455 natural log
A49C: 0.137 natural log
M51G: -0.325 natural log
R30V: -0.0948 natural log
T37W: -0.219 natural log
A29Q: -0.326 natural log
E32F: -1.16 natural log
A29G: -0.491 natural log

Other studies, line by line
PhoQ, residues 284 288 289 292 302 303 GLASVI
fold induction (PhoP, residues 12 14 15 18 19 VHSCL (Escherichia coli, UniProt P23836); Sort-seq, measured: YFP reporter; E. coli; PhoQ-PhoP variant library, with: 10 µM Mg2+; relative to: high Mg2+ state, higher = stronger signaling): 6.56

For quick reference, copied from above (study 1):
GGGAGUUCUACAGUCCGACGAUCCACUAACAUCCUCCUACACCGGUCCAUCGUGUUCGGCUCUGAUCAGGAAUAGACAAGGCUUCUUUGACUGUCAAGUGAUUAACAUAUGGUACCCGGUGUCAGAACAUUUAUGGAAUUCUCGGGUGCCAA: 0.272
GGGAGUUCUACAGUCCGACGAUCCCUAAGGUAACAUAUGUCUCACAUGUAUUCAGACAUACAGGAUGCUAAUCCACCUUGCAUCCUGCUGUCCAGGUGGACUUCUGUUAGGGACCCAAGGGCCCUUUGGUGUGUGGAAUUCUCGGGUGCCAA: 0.357
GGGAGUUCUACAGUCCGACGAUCUUAUAGGGAAACAAGUGGAGCAGGGACGUGGCUUUAAUUGGAGCACUCGGCUGGGCUGCUUGGGGAGACUCUUCCGUGCGUUCUUCCUCUGGAUAGAACCACCACCUCCUUGGAAUUCUCGGGUGCCAA: 0.383
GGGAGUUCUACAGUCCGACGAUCAGAUCUAUCCGAGUGCUUCCUUCAACUGACCAUAUGCUUCUUCCUCGUGUCUGCCUGCGGGCUCCUGAGGGUCCACAGCUGAGCUGAUCCAUCUUUCCCUCAAGUGACCGUGGAAUUCUCGGGUGCCAA: 1.35
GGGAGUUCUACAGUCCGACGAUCUGCGCUCUGUGGAUGCCAGGGCCGACCAGAGGAGCCUUUUUAAAACACAUGUUUUUAUACAAAAUAAGAACGAGGAUUUUAAUUUUUUUUAGUAUUUAUUUAUGUACUUUUGGAAUUCUCGGGUGCCAA: 0.532
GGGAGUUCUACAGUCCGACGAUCUACUAGCUCAGUGCUCAAUCUCCAGGUACUAUAUAUACAUUUGCCCGUUUUAUCUCUAAUGUGAAAUAAAUCCCCAAACACUUGUUUAUCGUGUAGCGUACCUAAAAGACUGGAAUUCUCGGGUGCCAA: 0.308
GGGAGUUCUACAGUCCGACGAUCGCUGGGGUUUCUAGUAAAGUCUGUGAGCCUCUCCACCAGUCCCUGUAAAUGCUAAUGCAGCCCAGCCCUGCCUGUUGUUUUGGAUCCUUGGUGUCUCAUGUGUACUUCCUUGGAAUUCUCGGGUGCCAA: 0.724
